Results from different studies.
Compare with care: the assays were run in different laboratories. ± gives the spread as reported.
Organism: Pseudomonas aeruginosa

`CC[C@H](C)[C@H](NC(=O)[C@H](CC(=O)O)NC(=O)[C@H](Cc1ccccc1)NC(=O)[C@H](CC(C)C)NC(=O)CN)C(=O)N[C@H](C(=O)N[C@@H](CCCCN)C(=O)N[C@@H](CCCCN)C(=O)N[C@H](C(=O)N[C@H](C(=O)NCC(=O)N[C@@H](C)C(=O)N[C@@H](CC(C)C)C(=O)N[C@@H](CCCCN)C(N)=O)C(C)C)C(C)C)C(C)C` gave an MIC of over 22 µM (ATCC 19606, CAMHB; 18 h, 37 °C).
The MIC of `CC[C@H](C)[C@H](NC(=O)[C@H](CC(=O)O)NC(=O)[C@H](CCC(N)=O)NC(=O)[C@H](CCCNC(=N)N)NC(=O)[C@H](CCCNC(=N)N)NC(=O)[C@H](CCC(N)=O)NC(=O)[C@H](CO)NC(=O)[C@@H](N)Cc1c[nH]cn1)C(=O)N[C@@H](CC(C)C)C(=O)N[C@@H](CC(=O)O)C(=O)N[C@@H](CC(C)C)C(=O)N[C@@H](Cc1c[nH]c2ccccc12)C(=O)N[C@H](C(=O)N[C@@H](Cc1ccc(O)cc1)C(=O)N[C@@H](Cc1c[nH]cn1)C(=O)N[C@H](C(=O)N[C@@H](CCC(N)=O)C(=O)NCC(=O)N[C@@H](Cc1ccc(O)cc1)C(=O)N[C@@H](Cc1ccccc1)C(=O)O)[C@@H](C)O)[C@@H](C)CC` is reported as 20 µM (broth microdilution; PTCC 1074; overnight, 37 °C).
For `CC(C)C[C@H](N)C(=O)N[C@@H](CS)C(=O)N1CCC[C@H]1C(=O)N[C@@H](Cc1c[nH]cn1)C(=O)N[C@@H](CCCNC(=N)N)C(=O)N[C@@H](CS)C(=O)O`, the MIC was 40 µg/mL (broth microdilution; MTCC 1688; 37 °C).
With `CC(C)C[C@H](NC(=O)[C@H](C)NC(=O)[C@H](CCCCN)NC(=O)[C@H](CC(C)C)NC(=O)[C@H](CC(C)C)NC(=O)[C@H](CCCCN)NC(=O)[C@H](CCCCN)NC(=O)[C@H](CC(C)C)NC(=O)[C@H](CC(C)C)NC(=O)[C@H](CCCCN)NC(=O)[C@H](CC(C)C)NC(=O)[C@H](CC(C)C)NC(=O)[C@@H](N)CCCCN)C(=O)NCC(N)=O` the MIC was over 20 µM (ATCC 19606, CAMHB; 18 h, 37 °C).
With `CSCC[C@H](NC(=O)[C@H](CCCNC(=N)N)NC(=O)[C@H](CCC(=O)O)NC(=O)[C@H](CCCNC(=N)N)NC(=O)[C@@H](NC(=O)[C@@H](NC(=O)[C@@H]1CCCN1C(=O)[C@H](Cc1c[nH]c2ccccc12)NC(=O)CNC(=O)[C@@H](NC(=O)[C@@H](NC(=O)[C@H](CO)NC(=O)[C@H](CO)NC(=O)[C@H](CCCCN)NC(=O)[C@H](CO)NC(=O)[C@H](Cc1c[nH]c2ccccc12)NC(=O)[C@H](CCCCN)NC(=O)CNC(=O)CN)C(C)C)C(C)C)[C@@H](C)O)C(C)C)C(=O)N[C@@H](CCCNC(=N)N)C(=O)O` the MIC was 20 µM (broth microdilution; PTCC 1074; overnight, 37 °C).
With `CC[C@H](C)CCCCC(=O)N[C@@H](CCN)C(=O)N[C@H](C(=O)N[C@@H](CCN)C(=O)N[C@H]1CCNC(=O)[C@H]([C@@H](C)O)NC(=O)[C@H](CCN)NC(=O)[C@H](CCN)NC(=O)[C@H](CC(C)C)NC(=O)[C@@H](Cc2ccccc2)NC(=O)[C@H](CCN)NC1=O)[C@@H](C)O` the MIC was 2 µg/mL (broth microdilution; PAO1, CAMHB; 24 h, 37 °C).
For `Cn1ccc(=O)nc1Sc1ccc([N+](=O)[O-])cc1[N+](=O)[O-]`, the MIC was 125 µg/mL (ATCC 29853).
For `CSCC[C@H](NC(=O)[C@H](CCCCN)NC(=O)[C@H](CCCCN)NC(=O)[C@@H](NC(=O)[C@H](CCCCN)NC(=O)[C@H](CC(=O)O)NC(=O)[C@H](Cc1c[nH]c2ccccc12)NC(=O)[C@H](CC(C)C)NC(=O)[C@H](CCC(=O)O)NC(=O)[C@H](CCCCN)NC(=O)[C@@H](NC(=O)[C@@H](N)Cc1ccccc1)C(C)C)C(C)C)C(=O)NCC(=O)N[C@@H](CO)C(=O)N[C@@H](C)C(=O)N[C@@H](C)C(=O)N[C@@H](Cc1c[nH]c2ccccc12)C(=O)N[C@@H](CO)C(=O)N[C@@H](C)C(=O)N[C@@H](C)C(=O)N[C@@H](CCCCN)C(=O)NCC(=O)N[C@@H](C)C(=O)N[C@@H](Cc1ccccc1)C(=O)N[C@@H](C)C(=O)O`, the MIC was over 40 µM (broth microdilution; ATCC 27853; 20 h, 37 °C).
`CC[C@H](C)[C@H](NC(=O)CNC(=O)[C@H](CCCNC(=N)N)NC(=O)[C@H](Cc1ccccc1)NC(=O)[C@@H](NC(=O)[C@H](Cc1c[nH]cn1)NC(=O)[C@H](Cc1c[nH]cn1)NC(=O)[C@H](Cc1ccccc1)NC(=O)[C@@H](N)Cc1ccccc1)[C@@H](C)CC)C(=O)N[C@H](C(=O)N[C@@H](Cc1c[nH]cn1)C(=O)N[C@H](C(=O)NCC(=O)N[C@@H](CCCCN)C(=O)N[C@H](C(=O)N[C@@H](CCCCN)C(=O)N[C@@H](Cc1c[nH]cn1)C(=O)N[C@@H](CCCNC(=N)N)C(=O)N[C@@H](CC(C)C)C(=O)N[C@H](C(=O)N[C@H](C(=O)NCC(N)=O)[C@@H](C)O)C(C)C)[C@@H](C)O)C(C)C)C(C)C` gave an MIC of 25 µg/mL (broth microdilution; ATCC 10662; 18 h, 37 °C).
`CC(C)C[C@H](NC(=O)[C@H](C)NC(=O)CNC(=O)[C@@H](NC(=O)[C@@H](NC(=O)[C@H](CCCCN)NC(=O)[C@H](CCCCN)NC(=O)[C@@H](NC(=O)[C@H](CC(C)C)NC(=O)[C@H](CCCCN)NC(=O)[C@H](CC(C)C)NC(=O)[C@H](CC(C)C)NC(=O)[C@@H](N)CCCCN)C(C)C)C(C)C)C(C)C)C(=O)NCC(N)=O` has an MIC of over 22 µM (ATCC 19606, CAMHB; 18 h, 37 °C).
For `CC[C@H](C)[C@H](NC(=O)[C@H](CO)NC(=O)[C@@H](NC(=O)[C@H](C)NC(=O)[C@H](CCC(N)=O)NC(=O)CNC(=O)[C@@H](NC(=O)[C@@H](NC(=O)CNC(=O)[C@@H](NC(=O)[C@H](C)NC(=O)[C@@H]1CCCN1C(=O)CNC(=O)[C@H](C)NC(=O)[C@H](CCCCN)NC(=O)[C@@H](NC(=O)[C@@H](NC(=O)CNC(=O)[C@H](CC(=O)O)NC(=O)[C@H](CCCNC(=N)N)NC(=O)[C@@H](NC(=O)[C@H](CCCCN)NC(=O)[C@H](CCCNC(=N)N)NC(=O)CNC(=O)[C@@H](NC(=O)[C@H](CCCCN)NC(=O)[C@H](CCC(=O)O)NC(=O)[C@@H](NC(=O)[C@H](CCCCN)NC(=O)[C@H](CCCCN)NC(=O)[C@H](CC(C)C)NC(=O)[C@H](Cc1ccccc1)NC(=O)[C@H](CCCCN)NC(=O)[C@H](Cc1c[nH]c2ccccc12)NC(=O)[C@@H](N)CCCNC(=N)N)[C@@H](C)CC)C(C)C)C(C)C)C(C)C)[C@@H](C)CC)C(C)C)C(C)C)C(C)C)[C@@H](C)O)C(=O)N[C@@H](Cc1ccc(O)cc1)C(=O)N[C@@H](CCCCN)C(N)=O`, the MIC was 5 ± 2.5 µg/mL (broth microdilution; ATCC 27850; 20 h, 37 °C).
The MIC of `N=C(N)NCCC[C@H](NC(=O)[C@H](Cc1c[nH]cn1)NC(=O)[C@@H]1CCCN1C(=O)[C@H](CS)NC(=O)CN)C(=O)N[C@@H](CS)C(=O)O` is reported as 90 µg/mL (broth microdilution; MTCC 1688; 37 °C).
`O=[N+]([O-])c1ccc(Sc2nc3ccccc3s2)c([N+](=O)[O-])c1` gave an MIC of over 500 µg/mL (ATCC 29853).
The MIC of `CC[C@H](C)[C@H](NC(=O)[C@H](C)NC(=O)[C@@H](NC(=O)[C@H](C)NC(=O)CNC(C)=O)[C@@H](C)O)C(=O)N[C@@H](CCCCN)C(=O)N[C@@H](CCC(N)=O)C(=O)N[C@H](C(=O)N[C@@H](CCCCN)C(=O)N[C@@H](CCCCN)C(=O)N[C@@H](CC(C)C)C(=O)N[C@@H](Cc1ccccc1)C(=O)N[C@@H](CCCCN)C(=O)N[C@@H](CCCCN)C(=O)N[C@@H](CCCCN)C(=O)NCC(=O)NCC(N)=O)C(C)C` is reported as 310 µM (broth microdilution; ATCC 9027; 24 h, 37 °C).
`O=[N+]([O-])c1ccc(Oc2cccc3cccnc23)c([N+](=O)[O-])c1` gave an MIC of 125 µg/mL (ATCC 29853).
`CC[C@H](C)[C@H](NC(=O)CNC(=O)[C@H](CCCNC(=N)N)NC(=O)[C@H](Cc1ccccc1)NC(=O)[C@@H](NC(=O)[C@H](Cc1c[nH]cn1)NC(=O)[C@H](Cc1c[nH]cn1)NC(=O)[C@H](Cc1ccccc1)NC(=O)[C@@H](N)Cc1ccccc1)[C@@H](C)CC)C(=O)N[C@H](C(=O)N[C@@H](Cc1c[nH]cn1)C(=O)N[C@H](C(=O)NCC(=O)N[C@@H](CCCCN)C(=O)N[C@H](C(=O)N[C@H](C(=O)N[C@@H](Cc1c[nH]cn1)C(=O)N[C@@H](CCCNC(=N)N)C(=O)N[C@@H](CC(C)C)C(=O)N[C@H](C(=O)N[C@H](C(=O)NCC(N)=O)[C@@H](C)O)C(C)C)[C@@H](C)CC)[C@@H](C)O)C(C)C)C(C)C` gave an MIC of 25 µg/mL (broth microdilution; ATCC 10662; 18 h, 37 °C).
With `CC[C@H](C)[C@H](N)C(=O)N[C@@H](CC(C)C)C(=O)NCC(=O)N1CCC[C@H]1C(=O)N[C@H](C(=O)N[C@@H](CC(C)C)C(=O)NCC(=O)N[C@@H](CC(C)C)C(=O)N[C@H](C(=O)N[C@@H](CO)C(=O)N[C@@H](CC(=O)O)C(=O)N[C@H](C(=O)N[C@@H](CC(C)C)C(=O)N[C@@H](CC(=O)O)C(=O)N[C@@H](CC(=O)O)C(=O)N[C@H](C(=O)N[C@@H](CC(C)C)C(=O)NCC(=O)N[C@H](C(=O)N[C@@H](CC(C)C)C(=O)N[C@@H](CS)C(=O)O)[C@@H](C)CC)C(C)C)[C@@H](C)O)C(C)C)C(C)C` the MIC was 90 µM (ATCC 27853; 24 h, 37 °C).
`CC(C)C[C@H](NC(=O)[C@H](CC(C)C)NC(=O)[C@H](CCCCN)NC(=O)[C@H](CC(C)C)NC(=O)[C@H](CC(C)C)NC(=O)[C@H](CCCCN)NC(=O)[C@H](CCCCN)NC(=O)[C@H](CC(C)C)NC(=O)[C@H](CC(C)C)NC(=O)[C@H](CCCCN)NC(=O)[C@H](CC(C)C)NC(=O)[C@H](CC(C)C)NC(=O)[C@@H](N)CCCCN)C(=O)N[C@@H](CCCCN)C(N)=O` has an MIC of over 19 µM (ATCC 19606, CAMHB; 18 h, 37 °C).
With `CC[C@H](C)[C@H](NC(=O)[C@H](CC(C)C)NC(=O)CNC(=O)[C@@H]1CCCN1C(=O)[C@H](CC(C)C)NC(=O)[C@H](C)NC(=O)[C@H](CCCCN)NC(=O)CNC(=O)[C@H](CC(C)C)NC(=O)[C@H](CCSC)NC(=O)[C@H](CCCCN)NC(=O)[C@H](C)NC(=O)[C@H](C)NC(=O)[C@H](C)NC(=O)CNC(=O)[C@H](Cc1c[nH]c2ccccc12)NC(=O)[C@@H](N)Cc1ccccc1)C(=O)N[C@@H](CO)C(=O)N[C@@H](CCSC)C(=O)N[C@@H](Cc1ccccc1)C(=O)N[C@@H](CCC(N)=O)C(=O)N[C@@H](CCCCN)C(=O)N[C@@H](CC(N)=O)C(=O)O` the MIC was over 40 µM (broth microdilution; ATCC 27853; 20 h, 37 °C).

Excerpt of the above:
The MIC of `CC[C@H](C)[C@H](NC(=O)[C@H](CC(=O)O)NC(=O)[C@H](CCC(N)=O)NC(=O)[C@H](CCCNC(=N)N)NC(=O)[C@H](CCCNC(=N)N)NC(=O)[C@H](CCC(N)=O)NC(=O)[C@H](CO)NC(=O)[C@@H](N)Cc1c[nH]cn1)C(=O)N[C@@H](CC(C)C)C(=O)N[C@@H](CC(=O)O)C(=O)N[C@@H](CC(C)C)C(=O)N[C@@H](Cc1c[nH]c2ccccc12)C(=O)N[C@H](C(=O)N[C@@H](Cc1ccc(O)cc1)C(=O)N[C@@H](Cc1c[nH]cn1)C(=O)N[C@H](C(=O)N[C@@H](CCC(N)=O)C(=O)NCC(=O)N[C@@H](Cc1ccc(O)cc1)C(=O)N[C@@H](Cc1ccccc1)C(=O)O)[C@@H](C)O)[C@@H](C)CC` is reported as 20 µM (broth microdilution; PTCC 1074; overnight, 37 °C).
For `CC(C)C[C@H](N)C(=O)N[C@@H](CS)C(=O)N1CCC[C@H]1C(=O)N[C@@H](Cc1c[nH]cn1)C(=O)N[C@@H](CCCNC(=N)N)C(=O)N[C@@H](CS)C(=O)O`, the MIC was 40 µg/mL (broth microdilution; MTCC 1688; 37 °C).
